# Measured values of several laboratories.
# Each numbered part is a random draw from the data of one study; scales do not carry over between parts. Positions count from the first letter of the parent shown.

# Block 1 — method: DHFR PCA, deep sequencing; medium: yeast; together with: (+)-ABA 17 µM; relative to: wild-type fitted maximum; direction: higher = stronger binding
# Target: ABI1, truncated, D143A, DHFR fusion (Arabidopsis thaliana)
# Notes: methotrexate growth selection, single substitutions
# Parent: PYL1, truncated, DHFR fusion (Arabidopsis thaliana); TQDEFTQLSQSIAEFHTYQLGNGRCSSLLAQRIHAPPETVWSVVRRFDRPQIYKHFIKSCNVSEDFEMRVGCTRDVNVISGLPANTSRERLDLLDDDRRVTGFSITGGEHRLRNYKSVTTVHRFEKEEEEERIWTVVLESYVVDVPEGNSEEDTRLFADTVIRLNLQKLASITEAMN; partner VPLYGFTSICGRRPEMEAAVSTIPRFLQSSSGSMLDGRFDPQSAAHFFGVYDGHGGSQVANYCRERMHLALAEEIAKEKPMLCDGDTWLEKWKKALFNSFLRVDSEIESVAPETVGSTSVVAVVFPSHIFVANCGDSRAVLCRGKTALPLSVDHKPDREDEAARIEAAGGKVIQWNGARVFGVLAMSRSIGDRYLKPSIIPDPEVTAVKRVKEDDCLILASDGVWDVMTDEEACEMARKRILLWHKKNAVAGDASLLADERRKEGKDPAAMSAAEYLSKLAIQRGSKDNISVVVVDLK
Variant,relative binding score
S171R,91.4%
R46K,68.3%
N149I,22.4%
E174W,14.2%
D97E,107%
T73H,81.1%
F15M,49.3%
N22H,85.7%
G71C,19%
S80A,13.4%
V76Q,2.01%
T154Q,-3.38%
S11N,64.8%
G71L,-4.11%
I79P,-10.5%
D3E,85.7%
K116E,21.8%
T1S,80.9%
Y141Q,-12.2%
S87F,5.55%

# Block 2 — method: RNA Bind-n-Seq; molecule type: RNA; medium: in vitro; tested at: 200 nM; notes: whole 134-nt RNA, ends assumed; together with: 150 mM KCl; relative to: input library; direction: higher = stronger binding
# Target: Fragile X messenger ribonucleoprotein 1, C-terminal low-complexity region (Fmr1, Mus musculus, UniProt P35922)
Strand,log2 enrichment
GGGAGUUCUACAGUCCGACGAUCUCCUGUGCUACACAUCGUAUGUACCGAAUCGGGAAAAAAAGGGAAAAAAAGGGUUUGGGAAAGUAUUAUGUUACGCCGUUCGGAUCUGCAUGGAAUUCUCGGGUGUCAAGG,-0.21
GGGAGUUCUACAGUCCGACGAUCGAAACUACCCGUGUGUAAAAAGAAGAUUGGCUUAAAAUGGCUACUGUGAUGGGAACAGUGUCUUAGGGAGAUGCAGCUUGGACUUGAGGUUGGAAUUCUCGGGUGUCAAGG,0.22
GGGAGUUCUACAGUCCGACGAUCUGGGAGGUGGAUUUUGUUUAUUUUUUUAGCUCAUUACCAGGGGUGGGAAUUUUUUUUUAAUAUGUGUCAUGAAUAAAGUUGUUUUUGAAAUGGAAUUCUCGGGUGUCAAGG,0.152
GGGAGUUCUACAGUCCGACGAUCAAGUCCUGUGCUACACAUCGUAUGUACCGAAUCGGUUUGGGGUUUGGGGUUUGGGGAAAGUAUUAUGUUACGCCGUUCGGAUCUGCACUUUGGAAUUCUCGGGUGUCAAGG,-0.0148
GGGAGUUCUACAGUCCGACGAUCAGUCCUGUGCUACACAUCGUAUGUACCGAAUCGGCCCCCGGCCCCCGGGGCCCCCGGAAAGUAUUAUGUUACGCCGUUCGGAUCUGCACUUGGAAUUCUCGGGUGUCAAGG,-0.824
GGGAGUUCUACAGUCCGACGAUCCACAGACAACACGCACCCUCACAGACACAGAGGGAAGGGGUUGGGAUGGGGACAGGGUGCACAGCAGGGCGGGGUAGGACCCCAGCCCCUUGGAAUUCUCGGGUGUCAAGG,1.37
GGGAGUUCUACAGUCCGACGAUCCACAGACAACACGCACCAACACAGACACAGAGGGAAGGGGUUGGGAUGGGGACAGGGUGCACAGCAGGGCGGGGUAGGACCCCAGCCCCUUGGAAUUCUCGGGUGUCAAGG,1.26
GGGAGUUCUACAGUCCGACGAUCACCAUGCAGGUGGGCAUCUUUGGGAAGUGGGGCAAGGGGGGGAUAGGGAGGGGGGCAACACUUUGGGAACAGGUGGUCCCAGGUCGUUUCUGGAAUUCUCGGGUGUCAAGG,1
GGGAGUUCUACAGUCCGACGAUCAAGUCCUGUGCUACACAUCGUAUGUACCGAAUCGGAAAAAAAGGUUUUUUUGGUGGAAAGUAUUAUGUUACGCCGUUCGGAUCUGCACUUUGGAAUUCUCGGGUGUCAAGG,-1.09
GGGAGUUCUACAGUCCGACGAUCCACAGACAACACGCACCCACACAGACACAGAGGGAAGGGGUUGGGAUGGGGACAGGGUGCACAGCAGUGCGGGGUAGGACCCCAGCCCCUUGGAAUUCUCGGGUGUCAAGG,1.31
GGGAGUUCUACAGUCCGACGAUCACCAUGCAGGUGGGCAUCCUUGGGAAGUGGGGCAAGGGGGGGAUAGGGAGGGGGGUAACACUUUGGGAACAGGUGGUCCCAGGUCGUUUCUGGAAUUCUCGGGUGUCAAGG,0.861
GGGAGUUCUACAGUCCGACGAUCCAAGUCCUGUGCUACACAUCGUAUGUACCGAAUCGGUUUUUGGAAAGGUUUUUGGAAAGUAUUAUGUUACGCCGUUCGGAUCUGCACUUCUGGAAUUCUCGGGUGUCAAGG,-0.811
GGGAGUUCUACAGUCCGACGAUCCUCAAGUCCUGUGCUACACAUCGUAUGUACCGAAUCGGCCCGGCCCGGGCCCGGAAAGUAUUAUGUUACGCCGUUCGGAUCUGCACUUCCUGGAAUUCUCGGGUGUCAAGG,-0.583
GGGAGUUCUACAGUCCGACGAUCCCUGUGCUACACAUCGUAUGUACCGAAUCGGGUUUUUUGGGUUUUUUGGGGUUUUUUGGGGAAAGUAUUAUGUUACGCCGUUCGGAUCUGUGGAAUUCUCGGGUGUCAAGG,-0.581

# Block 3 — method: RNA Bind-n-Seq; molecule type: RNA; medium: in vitro; tested at: not given; notes: RNA with constant flanks, ends assumed; relative to: input RNA pool; direction: higher = stronger binding
# Target: RING finger protein unkempt homolog, zinc fingers 1-6, GST-SBP tag (UNK, Homo sapiens, UniProt Q9C0B0, residues 30-357)
# Residues (chain): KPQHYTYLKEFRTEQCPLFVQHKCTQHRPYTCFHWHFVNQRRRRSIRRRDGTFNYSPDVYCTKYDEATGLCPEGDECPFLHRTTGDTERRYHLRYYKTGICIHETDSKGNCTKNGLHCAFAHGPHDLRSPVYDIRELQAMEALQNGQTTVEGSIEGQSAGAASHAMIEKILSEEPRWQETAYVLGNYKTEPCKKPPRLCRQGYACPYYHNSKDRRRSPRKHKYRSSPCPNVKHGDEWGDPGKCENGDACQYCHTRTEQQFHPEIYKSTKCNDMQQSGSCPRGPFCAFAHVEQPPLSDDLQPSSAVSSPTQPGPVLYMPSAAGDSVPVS
Strand,bound/input enrichment
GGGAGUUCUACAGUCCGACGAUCAGCAAAAAUCAAAUUAAAGUAGAUCUUGUAGAUGAGAAUUUUACAGAAUUAAGAGGAGAAACCGCAGGACCUCCAGACACACCAUAUGAAGGAGGAAGAUACCAACUAGAGAUAAAAAUACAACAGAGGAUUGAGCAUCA,14 ratio
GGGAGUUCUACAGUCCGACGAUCACCAGGGGAACUUCCAUCAAGGAGUUCCGGGAGAUGACCCUCAGCUUCCUCAAGGCUAACUCCGGAGACCUGCCUUCCCUGCCAGCGCUGGUUGACCAGAUACUUCUCAUGGCGGACUUCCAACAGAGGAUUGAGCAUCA,0.142 ratio
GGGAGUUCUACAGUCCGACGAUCUACUUUCAAAGAGCCCCAAGGGCUUAAUGACCCCAUUUGUAACUGAGAAAUGAUUCUUGUUUCCGUAAUCAUUCUAUAAAUGAUACUGCUGGAUUGAUUGCCGUGGGUUGAUAGCUGGAGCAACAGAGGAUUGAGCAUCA,0.271 ratio
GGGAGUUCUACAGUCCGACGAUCUACACAUCAUUUUGGAAUGACUGUAUAUCAUCUGGAUUACGUGGCUGUAUGUUAAUUGAAUCCGCUUUGAGAGGAAGGUUACAGUUAGAGGCUUGUGGAAUGAGAAGAAAAAGUCUUUUACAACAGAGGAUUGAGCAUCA,0.213 ratio
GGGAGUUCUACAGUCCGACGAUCAAUCUUAAGCUUGCAACUGAACUCCCUGAUGCUGAACUUAGGAGGACUUUAUGGUCUUCCGCCGCUUUCCCAAAACUCAAACGGCAAGUUUUGUUGUAUGAACCUCAAGUCAACUCACCCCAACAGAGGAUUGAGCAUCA,0.158 ratio
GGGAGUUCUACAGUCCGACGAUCAACACUAGACAAAAAAAAAUCAACUGUAUUUGUAAAAAUUUACCUCAAACCAUUUAAUUUUACCGUGUGAUUGGUUAAUCCCAGGGCAUUUGGUAUGAACCAAAGUGCAUUCCUUUUUUUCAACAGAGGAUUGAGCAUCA,2.84 ratio
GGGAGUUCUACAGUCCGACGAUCCCCACUAAACCAUCUCUCAGGCUCCUGAGAGGUUUUUUGUUUGUUUGUUUUUGUUUUUUAAACCGGUCUCAGCUGGCCUGGAGCUUGCAGUGUAGAUCAGGCUGGCCUAGAGCUUACUGACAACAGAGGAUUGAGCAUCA,0.203 ratio
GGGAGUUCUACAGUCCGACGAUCUGGUGUACAAAUACGACAUUUUUGCAAGAAGGAAUGCCUACUUCUGCACGAUGUGAUGAUUCCGAAGCUUUGAAAAAGAAGGGUUGCCAGCCAAGUGACAUAGAGAAUCCCAGAGGCUCUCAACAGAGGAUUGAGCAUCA,0.0903 ratio
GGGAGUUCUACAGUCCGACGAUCCUGUCUGAUAUCAUGGUCUCCCUGGCAAAUGCGUCAACUUUGCAGAAGGAUUGCAGUUGGACCGAAAUGAUAAGGAAAUUUGUAACAGAGACCCUUGAAGAUGGCUCUAGGCUAAAUAGUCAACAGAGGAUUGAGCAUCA,0.213 ratio
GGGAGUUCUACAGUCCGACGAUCUAAGAUGUAUUCUGUACAUAAUUUACAAAUAAAACAUUUUAUUUUAAUUGUUACUUAUUAUUCCGACAUUUCUCAACACUGAAAUUUGUAAAACAAAAACCAUGUAAGGUAUGUUUUUAGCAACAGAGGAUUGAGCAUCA,0.227 ratio
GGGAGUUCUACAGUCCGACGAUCGUUCCUUUCGGCAGUGCUGCGUGCCCAGAUUCUUAAUAACAUUAAGUCUGUUACUGUGUACCGCAAUGGUUUAUAUUUCAUUAUGCUACUAAAGGUUCAUCUUUUCUACAUUAAAAAUAUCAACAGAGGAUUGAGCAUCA,0.227 ratio

# Block 4 — method: protein binding microarray; molecule type: double-stranded DNA, one strand shown; medium: in vitro; tested at: not given; relative to: not given; direction: higher = stronger binding
# Target: Histone acetyltransferase KAT6A, both winged helices, GST fusion (KAT6A, Homo sapiens, UniProt Q92794, residues 1-181)
# Notes: 8-mer, flanks averaged, mean of 2 arrays, mostly near background
# Target sequence (chain): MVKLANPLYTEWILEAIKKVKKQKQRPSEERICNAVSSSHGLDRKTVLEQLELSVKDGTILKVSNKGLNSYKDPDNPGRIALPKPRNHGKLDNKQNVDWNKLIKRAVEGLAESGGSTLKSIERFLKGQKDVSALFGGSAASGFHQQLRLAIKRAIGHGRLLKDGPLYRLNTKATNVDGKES
Strand,E-score
CTTTAGCC,0.0128
CACCTCGA,-0.0861
GAACCTAC,-0.196
CATGCCAA,-0.264
ATGGTTAA,-0.0797
CTAGGGGC,-0.122
ATAGTCCC,0.00162
CTTTATTC,-0.188
CCCTGTTC,-0.233
CATAATTC,-0.00573
CCGCTTTC,0.199
TATTTTGA,-0.208
AATCGGGT,0.103
GGAATGCA,-0.0641
CTGAGTTC,-0.0477
AACAAATT,-0.126
CCCCGCGC,0.326
CTGTATGC,0.00908
CTTATATA,-0.0869
GAATCCAC,-0.118
GATGTGAA,-0.0768
CAAACACA,-0.14
ACCGGACC,0.0969
ACATGCAT,-0.0537
AGGGGCGA,-0.0213

# Block 5 — target: CCNB2, cyclin fold, Cln2 fusion (human); method: yeast growth competition, sequencing; medium: yeast; notes: weak parent motif; relative to: not given; direction: higher = stronger binding
# Parent: ORC1 docking peptide (human); PRARKRLELGNLG; partner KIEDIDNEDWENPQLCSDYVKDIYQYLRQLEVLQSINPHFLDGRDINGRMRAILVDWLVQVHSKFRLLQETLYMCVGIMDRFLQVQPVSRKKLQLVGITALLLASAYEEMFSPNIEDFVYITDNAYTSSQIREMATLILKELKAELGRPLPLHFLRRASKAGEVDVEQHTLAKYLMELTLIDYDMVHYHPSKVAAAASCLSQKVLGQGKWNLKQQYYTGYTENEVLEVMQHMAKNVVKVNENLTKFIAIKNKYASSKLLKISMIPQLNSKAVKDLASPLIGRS
Variant,normalised enrichment score
R6W,-0.00938
N11C,0.632
R2A,0.672
R6Q,0.0504
R6P,-0.0572
L7M,0.329
L9N,0.349
L7F,0.0852
K5Q,0.325
R2G,0.146
N11R,0.863
R6D,0.227
L12F,0.489
A3Q,0.781
R4A,-0.0527
E8K,0.323
A3M,1.51
G10N,0.0362
G13I,0.000569
G13K,0.369
L9A,1.08
R2E,0.259
K5I,0.365

# Some of these lines once more (block 4):
Strand,E-score
GAACCTAC,-0.196
CATGCCAA,-0.264
ATGGTTAA,-0.0797
CTAGGGGC,-0.122
ATAGTCCC,0.00162
CTTTATTC,-0.188
CCCTGTTC,-0.233
CATAATTC,-0.00573
CCGCTTTC,0.199
TATTTTGA,-0.208
AATCGGGT,0.103
GGAATGCA,-0.0641
CTGAGTTC,-0.0477
AACAAATT,-0.126
CCCCGCGC,0.326
CTGTATGC,0.00908
